Published values gathered from unrelated publications.
A part holds a random share of what one study measured.

Set 1
Target: Sal-like protein 4, full length isoform B (SALL4, Homo sapiens, UniProt Q9UJQ4-2, residues 1-616)
Method: universal PBM
Form: double-stranded DNA, one strand shown
Medium: in vitro
Concentration: not given
Setting: 8-mer, flanks averaged, mean of replicates
Direction: higher = stronger binding
With `CCCATGAA` the E-score was -0.0628.
The E-score of `AAGGGCTG` is reported as -0.224.
For `AACCCAAG`, the E-score was -0.00034.
For `ACCTGCCC`, the E-score was -0.331.
`CGATATCA` gave an E-score of 0.148.
The E-score of `AGGCGAGA` is reported as -0.168.
`CACATAGA` has an E-score of 0.112.
The E-score of `ACTTAGTC` is reported as -0.0692.
`AAGGGCCA` has an E-score of -0.13.
With `GCAATCTA` the E-score was 0.11.
`ACAATGTG` has an E-score of 0.103.
`CGCCAGCG` gave an E-score of -0.243.
For `ATTAAGTC`, the E-score was 0.308.
The E-score of `TTATGAAA` is reported as 0.456.
For `GGCTTTCA`, the E-score was -0.0645.
The E-score of `TTCGACAA` is reported as 0.221.
The E-score of `ACCCGTAG` is reported as -0.266.
The E-score of `CCGACCAA` is reported as -0.202.
The E-score of `ATCCCATC` is reported as -0.0291.
`CTTCCCAA` has an E-score of -0.123.
The E-score of `AGCATCGC` is reported as -0.177.
With `GATGAACA` the E-score was 0.123.
For `GAAGCTAC`, the E-score was -0.0238.
With `ATTCGAGG` the E-score was -0.0267.

Set 2
Target: Histone acetyltransferase KAT6A, winged helix 1, GST fusion (KAT6A, Homo sapiens, UniProt Q92794, residues 1-85)
Method: protein binding microarray
Form: double-stranded DNA, one strand shown
Medium: in vitro
Concentration: not given
Setting: 8-mer, flanks averaged, mean of 2 arrays, mostly near background
Baseline: not given
Direction: higher = stronger binding
Construct (chain): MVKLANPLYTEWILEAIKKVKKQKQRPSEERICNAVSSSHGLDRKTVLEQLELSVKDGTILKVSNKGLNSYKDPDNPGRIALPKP
With `GCGTTGAA` the E-score was 0.213.
`CCCCAAAG` has an E-score of -0.271.
With `ACGACCCC` the E-score was 0.0823.
`AGCTATTC` gave an E-score of -0.0793.
The E-score of `CCCGAGTC` is reported as 0.0483.
With `GCGGAGCA` the E-score was 0.189.
`ACGTCCAC` has an E-score of -0.111.
`AATGTAAA` gave an E-score of -0.0252.
`ATCTATAC` gave an E-score of -0.0761.
With `ATCTTATC` the E-score was -0.161.
`TCTTCTAA` has an E-score of -0.165.
With `ATCCTATG` the E-score was -0.175.
`CACTTCGG` has an E-score of -0.00487.
`ACTTCCGC` has an E-score of 0.254.
With `CTTATGGA` the E-score was -0.101.
For `CAGCGCCG`, the E-score was 0.445.
`ATGCAAAG` gave an E-score of -0.142.
For `CAAGGAAC`, the E-score was -0.0571.
For `AGACCCAC`, the E-score was -0.136.
`GAGTACTC` gave an E-score of -0.117.
The E-score of `GCTATTGA` is reported as -0.023.
For `GCGGGACA`, the E-score was 0.352.
`TACACGAA` has an E-score of -0.00486.
`TCTGCACA` gave an E-score of -0.169.
The E-score of `AGAATGAA` is reported as -0.0989.

Set 3
Target: Fragile X messenger ribonucleoprotein 1, C-terminal low-complexity region (Fmr1, Mus musculus, UniProt P35922)
Method: RNA Bind-n-Seq
Form: RNA
Medium: in vitro
Concentration: 200 nM
Setting: whole 134-nt RNA, ends assumed
With: 150 mM KCl
Baseline: input library
Direction: higher = stronger binding
For `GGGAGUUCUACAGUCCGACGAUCUUUCUAGGCAAGAGGAGGAACGACGUAGAAGAGAGGAAGAGAUGAUGAUUCGUCAACGUGAGAUGGAAGAACAAAUGAGGCGCCAAAGAGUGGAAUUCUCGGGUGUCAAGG`, the log2 enrichment was 0.534.
`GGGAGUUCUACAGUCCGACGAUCUCCUGUGCUACACAUCGUAUGUACCGAAUCGGGGUUUUUUUGGGGUGGGGAAAAAGGGGAAAGUAUUAUGUUACGCCGUUCGGAUCUGCAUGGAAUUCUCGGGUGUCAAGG` has a log2 enrichment of 0.613.
`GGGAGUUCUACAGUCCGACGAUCUGGCCCUGGUGGCAUGCGGGGAGGAAGAGGUGGCCUCAUGGAUCGUGGUGGUCCCGGUGGAAUGUUCAGAGGUGGCCGUGGUGGAGACGGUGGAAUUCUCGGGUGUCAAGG` gave a log2 enrichment of 0.0586.
With `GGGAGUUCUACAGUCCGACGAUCCAAGUCCUGUGCUACACAUCGUAUGUACCGAAUCGGAAAAAAAGGAGGUUUUUGGAAAGUAUUAUGUUACGCCGUUCGGAUCUGCACUUCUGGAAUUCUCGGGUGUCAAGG` the log2 enrichment was -0.767.
With `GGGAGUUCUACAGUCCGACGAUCCCUCAAGUCCUGUGCUACACAUCGUAUGUACCGAAUCGGGGAAGGAAGGAAGGAAAGUAUUAUGUUACGCCGUUCGGAUCUGCACUUCCAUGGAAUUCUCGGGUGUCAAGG` the log2 enrichment was -0.194.
With `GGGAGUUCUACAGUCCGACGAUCUCCUGUGCUACACAUCGUAUGUACCGAAUCGGGGUUUUUUGGGGUUUUUUGGUUUUUUGGAAAGUAUUAUGUUACGCCGUUCGGAUCUGCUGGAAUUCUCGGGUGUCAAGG` the log2 enrichment was 0.116.
For `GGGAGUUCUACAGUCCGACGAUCAAGUCCUGUGCUACACAUCGUAUGUACCGAAUCGGGUUUGGGUUUUUUUGGGAGGGAAAGUAUUAUGUUACGCCGUUCGGAUCUGCACUUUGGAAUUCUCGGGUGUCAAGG`, the log2 enrichment was 0.963.
`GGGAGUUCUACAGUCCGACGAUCCACAGACAACACGCACCCACACAGACACAGAGGGAAGGGGUUGGGAUGGCGACAGGGUGCACAGCAGGGCGGGGUAGGACCCCAGCCCCUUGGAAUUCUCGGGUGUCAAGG` has a log2 enrichment of 0.76.
For `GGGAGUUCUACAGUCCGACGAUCGAGUCCGGUUCGUGUUCGUCCGCGGAGAUCUCUCUCAUCUCGCUCGGCUGCGGGAAAUCGGGCUGAAGCGACUGAGUCCGCGAUGGAGGUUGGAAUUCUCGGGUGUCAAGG`, the log2 enrichment was -1.29.

Set 4
Target: Centromere-binding protein 1, full length, N-terminal tag (CBF1, Saccharomyces cerevisiae, UniProt P17106, residues 1-351)
Sequence of UniProt P17106 (whole entry, looked up): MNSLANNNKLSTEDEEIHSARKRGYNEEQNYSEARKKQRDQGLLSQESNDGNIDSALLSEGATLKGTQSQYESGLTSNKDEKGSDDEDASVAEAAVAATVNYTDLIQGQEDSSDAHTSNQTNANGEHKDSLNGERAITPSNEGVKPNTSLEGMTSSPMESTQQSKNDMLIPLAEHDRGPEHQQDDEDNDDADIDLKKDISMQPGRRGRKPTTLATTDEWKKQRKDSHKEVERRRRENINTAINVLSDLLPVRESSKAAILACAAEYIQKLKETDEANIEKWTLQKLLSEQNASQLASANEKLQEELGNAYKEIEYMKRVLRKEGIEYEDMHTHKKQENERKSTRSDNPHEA
Method: protein-binding microarray
Form: double-stranded DNA, one strand shown
Medium: in vitro
Concentration: 0.8 µM
Setting: whole 60-bp probe, no competitor
Direction: higher = stronger binding
`GAAAATGGTTCAACTCACCCGAATGGAAATAACTAGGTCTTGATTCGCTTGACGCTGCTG` has a fluorescence intensity of 533 a.u.
For `GAAATGCTTATACGTGATTTGTTATATAAGGGATAGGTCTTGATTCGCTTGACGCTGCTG`, the fluorescence intensity was 821 a.u.
With `GAATAACTTAAAGGTGATGAAATGTGGCGTTCTTAGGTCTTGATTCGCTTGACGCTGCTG` the fluorescence intensity was 487 a.u.
`CTAGGTGGGTGCCATCACCTCTCGTGATATACATTCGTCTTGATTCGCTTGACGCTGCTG` has a fluorescence intensity of 1410 a.u.
The fluorescence intensity of `GAAGCGAGCAGAGAGTGGGTGATGTCAGAGAACTAGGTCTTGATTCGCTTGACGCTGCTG` is reported as 536 a.u.
With `GAAAGGGAAAGTACACGTGAAATTTTAAACTACTAGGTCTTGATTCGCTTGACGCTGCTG` the fluorescence intensity was 2620 a.u.
With `CTAAATGAAGTCTTGCGCACGCAATTGGTTGTATTCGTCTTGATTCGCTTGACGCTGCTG` the fluorescence intensity was 533 a.u.
`GAACCACCATTGAACGTGATTATGACTTCCAATTAGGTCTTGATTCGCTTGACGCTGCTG` gave a fluorescence intensity of 847 a.u.
`CCTAACTACTATAAGCACGTGAGATAGCTTCGTACAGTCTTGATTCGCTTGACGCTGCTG` has a fluorescence intensity of 5600 a.u.
With `CTATTTAGATGGGTCCATGTGAAAGCTCAAAGGTTCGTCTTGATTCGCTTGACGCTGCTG` the fluorescence intensity was 555 a.u.
The fluorescence intensity of `CTATTCGTGGATGGTCATGCGTATTTAAGAATATTCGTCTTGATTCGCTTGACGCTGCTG` is reported as 766 a.u.
For `GAATGCCACAATTACCACCACACAGAGGCAGGATAGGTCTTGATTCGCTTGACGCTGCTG`, the fluorescence intensity was 529 a.u.
For `CTATTCTTCCTATTTCTGATGCATTGAACAGATTTCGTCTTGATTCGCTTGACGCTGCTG`, the fluorescence intensity was 577 a.u.
For `CTAGCACTTGAGCACCTCATGCACAGCAATAACTTCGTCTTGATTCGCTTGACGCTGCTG`, the fluorescence intensity was 541 a.u.
`CTAAAAATATGTCAGACCACCACCAATGTTAACTTCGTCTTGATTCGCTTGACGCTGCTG` has a fluorescence intensity of 690 a.u.
The fluorescence intensity of `GAAAGAAGAATTGGACATCAGAATACTTTTCTCTAGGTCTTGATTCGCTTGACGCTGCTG` is reported as 516 a.u.
`CTATTTTATTAATGTCAGCTGAACCTCGTATTTTTCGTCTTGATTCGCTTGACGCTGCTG` has a fluorescence intensity of 815 a.u.
With `GAATCCCGGTAGTTCCACGCGGCCGATACCTCGTAGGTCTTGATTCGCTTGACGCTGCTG` the fluorescence intensity was 479 a.u.
With `GAAAATGGAAAACATGTGATTCTTATACTAAGCTAGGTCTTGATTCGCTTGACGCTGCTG` the fluorescence intensity was 2600 a.u.

Excerpt of the above (set 4):
The fluorescence intensity of `CTATTCGTGGATGGTCATGCGTATTTAAGAATATTCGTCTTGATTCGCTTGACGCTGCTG` is reported as 766 a.u.
`GAAAATGGTTCAACTCACCCGAATGGAAATAACTAGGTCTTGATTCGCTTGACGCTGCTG` has a fluorescence intensity of 533 a.u.
`GAACCACCATTGAACGTGATTATGACTTCCAATTAGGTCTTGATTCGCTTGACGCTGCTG` gave a fluorescence intensity of 847 a.u.
With `GAAAATGGAAAACATGTGATTCTTATACTAAGCTAGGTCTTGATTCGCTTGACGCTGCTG` the fluorescence intensity was 2600 a.u.
